Published values of several laboratories.
A part holds a random share of what one study measured. Substitutions count along the parent as printed.

Set 1 — method: RNA Bind-n-Seq; form: RNA; sample: in vitro; tested at: 200 nM; setting: whole 134-nt RNA, ends assumed; together with: 150 mM LiCl; reference: input library; reading: higher = stronger binding; quantity: log2 enrichment; library: 7-deaza-guanosine replaces G
Target: Fragile X messenger ribonucleoprotein 1, C-terminal low-complexity region (Fmr1, Mus musculus, UniProt P35922)
All sequences stand within: GGGAGUUCUACAGUCCGACGAUC … UGGAAUUCUCGGGUGUCAAGG
UCAAGUCCUGUGCUACACAUCGUAUGUACCGAAUCGGAAAGGAAAAAAAGGUGGAAAGUAUUAUGUUACGCCGUUCGGAUCUGCACUUCC: -0.926
GUCCUGUGCUACACAUCGUAUGUACCGAAUCGGGGUUUGGGGAAAAAAAGGGGUGGGGAAAGUAUUAUGUUACGCCGUUCGGAUCUGCAC: -1.52
UCAAGGGUUAUACACGGAAAGCCGCUGCGCUGGAAGCGAUGAAGGACUACACCAAAGCCAUGGAUGUGUACCAGAAGGCGCUAGACCUGG: -0.461
ACCAUGCAGGUGGGCAUCUUUGGGAAGUGGGGCACGGGGGGGAUAGGGAGGGGGGUAACACUUUGGGAACAGGUGGUCCCAGGUCGUUUC: 1.14
GUCCUGUGCUACACAUCGUAUGUACCGAAUCGGGGCCCCCGGGGCCCCCGGCCCCCGGGAAAGUAUUAUGUUACGCCGUUCGGAUCUGCA: -1.78
GCAGGAAGUACAAACAAAUGGAAAUGCUUCGGAUAGUGGCAGGGGUGGGGGUUGCUAAGGAAAGGGUGGGAUGGGAGUGGGUAAAGAGUU: 1.86
GUCCUGUGCUACACAUCGUAUGUACCGAAUCAAAUUUUUUUAAAUUUUUAAACCCAAAAAAGUAUUAUGUUACGCCGUUCGGAUCUGCAC: -0.674
ACCAUGCAGGUGGGCAUCUUUGGGAAGUGGGGCAAGGGUGGGAUAGGGAGGGGGGUAACACUUUGGGAACAGGUGGUCCCAGGUCGUUUC: 0.97
CAGCAGUGAGUCUCUUCAGAAAACCCUUUUCUACAGUUAGGGUUGAGUUACUUCCUAUCAAGCCAGUACGUGCUAACAGGCUCAAUAUUC: -1.27
UCAAGUCCUGUGCUACACAUCGUAUGUACCGAAUCGGAAAAAGGAAAAAGGAGGAAAGUAUUAUGUUACGCCGUUCGGAUCUGCACUUCC: -0.661
CUCAAGUCCUGUGCUACACAUCGUAUGUACCGAAUCGGAGGAAAGGAAAAAGGAAAGUAUUAUGUUACGCCGUUCGGAUCUGCACUUCCA: -1.02

Set 2 — method: protein-binding microarray; form: double-stranded DNA, one strand shown; sample: in vitro; tested at: 250 nM; setting: 60-bp whole probe; together with: salmon DNA 0.4 mg/ml; reference: random background probes; reading: higher = stronger binding; quantity: log fluorescence; all sequences stand within: GCCTAGCAC … GTCTTGATTCGCTTGACGCTGCTG
Target: Interferon regulatory factor 5, full length, phosphomimetic (IRF5, Homo sapiens, UniProt Q13568-2, residues 1-514, K96S/S451D/S453D/S456D/S462D)
TTAGGTATCGACTTTCGGTTGGTGCTA: 9.52 z-score
TCATTTTTTAGCTTCTCACTGTGCTAG: 0.884 z-score
TTAGGACTGCGACTGGGTTAGTGCTAG: -0.607 z-score
TGAGCATACCATATCAGAAAGTGCTAG: 0.523 z-score
GACGGTTTCGGTGCCGGGACGTGCTAG: 8.08 z-score
GACGATTTCGGTTATCGAGACGTGCTA: 7.85 z-score
TCAAGTTTTTATTTTCTACTGTGCTAG: 2.11 z-score
TTAGGACTGGGTTTCGGTTCGTGCTAG: 6.95 z-score
TCACATTCCCCATTGTGACTGTGCTAG: 0.107 z-score
CCCCTCTTCTGGATCTCAGAGTGCTAG: -0.362 z-score
TCAAGCTTCTTTTTTATACTGTGCTAG: 0.467 z-score
GCCGGTATCGGGACTGGGGACGTGCTA: 1.45 z-score
GAAGGTCTCGGTATCGGGACGTGCTAG: 1.17 z-score
GACGATTTCGGGTATCGAGAGGTGCTA: 4.92 z-score
TCATGTCTGTTTCCTCTTACTGTGCTA: 1.1 z-score
TCATTTATGTACTCTCTAACTGTGCTA: 0.839 z-score

Set 3 — method: universal PBM; form: double-stranded DNA, one strand shown; sample: in vitro; tested at: 600 nM; reading: higher = stronger binding; quantity: E-score
Target: Sal-like protein 4, full length isoform A (SALL4, Homo sapiens, UniProt Q9UJQ4, residues 1-1053)
Chain of UniProt Q9UJQ4 (whole entry, looked up): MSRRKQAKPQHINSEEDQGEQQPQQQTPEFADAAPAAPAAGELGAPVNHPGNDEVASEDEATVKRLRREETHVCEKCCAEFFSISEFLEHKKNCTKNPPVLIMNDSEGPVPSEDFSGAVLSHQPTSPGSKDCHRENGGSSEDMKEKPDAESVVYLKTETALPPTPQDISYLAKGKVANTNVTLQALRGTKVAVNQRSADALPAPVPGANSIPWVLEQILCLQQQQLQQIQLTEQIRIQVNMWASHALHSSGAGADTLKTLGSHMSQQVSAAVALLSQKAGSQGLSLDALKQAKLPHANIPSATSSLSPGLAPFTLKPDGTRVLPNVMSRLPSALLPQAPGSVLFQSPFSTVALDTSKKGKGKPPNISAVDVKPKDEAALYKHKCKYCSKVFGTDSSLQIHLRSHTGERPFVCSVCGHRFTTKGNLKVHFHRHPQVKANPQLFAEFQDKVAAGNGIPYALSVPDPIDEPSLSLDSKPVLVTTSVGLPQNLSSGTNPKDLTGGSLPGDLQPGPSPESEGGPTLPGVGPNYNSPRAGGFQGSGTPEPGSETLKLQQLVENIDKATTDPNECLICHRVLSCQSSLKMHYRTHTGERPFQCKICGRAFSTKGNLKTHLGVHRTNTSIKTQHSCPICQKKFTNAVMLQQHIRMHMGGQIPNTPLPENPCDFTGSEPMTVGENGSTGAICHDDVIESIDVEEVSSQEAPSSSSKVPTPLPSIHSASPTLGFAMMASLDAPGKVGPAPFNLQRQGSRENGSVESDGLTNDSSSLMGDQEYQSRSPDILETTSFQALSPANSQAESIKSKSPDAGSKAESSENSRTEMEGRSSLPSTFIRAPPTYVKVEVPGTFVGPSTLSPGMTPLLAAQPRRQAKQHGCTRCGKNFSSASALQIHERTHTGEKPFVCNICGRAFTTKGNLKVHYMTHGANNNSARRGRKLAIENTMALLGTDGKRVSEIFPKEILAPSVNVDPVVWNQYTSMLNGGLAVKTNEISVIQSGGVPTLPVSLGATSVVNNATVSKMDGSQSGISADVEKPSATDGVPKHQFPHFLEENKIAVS
Setting: 8-mer, flanks averaged, mean of replicates
CCGTGCAG: -0.203
CGTAGGGC: -0.196
CGCTACAA: -0.0274
TACGTTAA: 0.153
CTAGGAAG: -0.121
GAACTGAC: -0.197
AAGGGGGA: -0.163
CGCGGAGA: -0.197
CAGCCCCA: -0.32
GTGTAATA: 0.314
GTACTGGA: 0.0765
CCGATAGG: 0.00117
AAGCTAAA: 0.092
CAGAACAA: 0.231
TGCCATAA: 0.218
GTATTAAC: 0.195
GTTTATTA: 0.403

Set 4 — method: RNA Bind-n-Seq; form: RNA; sample: in vitro; tested at: 365 nM; reference: no-protein control; reading: higher = stronger binding; quantity: RBNS enrichment (R)
Target: RNA binding protein fox-1 homolog 2, RRM domain, GST-SBP tag (RBFOX2, Homo sapiens, UniProt O43251-10, residues 100-194)
Setting: natural RNA segment, single round, ends assumed
All sequences stand within: GGGAGUUCUACAGUCCGACGAUC … UGGAAUUCUCGGGUGCCAA
Target sequence (chain): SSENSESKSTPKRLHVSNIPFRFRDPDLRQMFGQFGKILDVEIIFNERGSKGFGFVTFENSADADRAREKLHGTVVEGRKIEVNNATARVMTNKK
CAGACUGAAGGGCUGUGAGCAGGUGUAAGGGCUCCCACAUCCGUGAGCCUGUGUCCGCAGCUGCUGCCACUCUGGGCUGCUCCAGCCUGCAACUUAGUGGAAGGAAUUAC: 0.417
AGGAGCCCCGAAGCUUUCCCCGACGUUCCUUUAACACAGAUUUCAUUGCAGCAGCCGCGCCCAGCCCAGGGAAGAAAGGAUGGGAAACCCCCGAGGUCUUCCUUGAACAU: 0.63
AAGGCCUCCUCCCGUUUCUCAUCAGCUUGCCUGCUACCACUUUGCCUUCUGGCCUCCAGCUGGGCCAGGAAGCAAGGUGGGAACACCUCCUCGGCCUUGAAGGCCCAAUG: 0.398
AUGUAGUUGUUCGUUGGUUAUACAAGUUCUUGGUCCCUCCAGAACCACCCCGGCCCCCUGCCCGUUCUUGAAAUGUAGGCAUCAUGCAUGUCAAACAUGAGAUGUGUGGA: 0.65
UGGAAGAUCUCAGAGCCAAGUCCUUCUACUCACGAGUAGAAGGACCGUUGGCCAACAGCCCUUUCACUUACCAUCCCUGCCUCCCCCGUCCUGUUCCCUUUGACUUCAGC: 0.229
CUACACCGGUAGCCUUCGCUGUCUGUCAGUCAGGACCUCUGGUAUAGGUGAUGUAAAAUAACCGUACAAUAUUAUGCAUGCUAUCCCAUAAUGCUUAGUGACUGUAUGAU: 0.734
AAACUACUAAACAUAAAUAGAUUUUCACUACCACAAAGAAUGAGAAUUAAUGACACUGAAGGAAUGAUGCAAAAACUUCCCAUGAUUCAUCACUGAAAAUAUGACUAAUA: 0.527
AUGGUUCAGUUCUAGGAAUGUUCUGGAAGAUGCUGUUAAUUUUACUUUAAAAUGAGAAUCUGGUGUUACUGUAUUUUAUCGUUUUCAAUAAAACUUCUUAAGUGUUUUGG: 0.554
GUAGGUAACUCUCCCCUCCCAAGUCCAUGUUCCAAGUGGCUAUGUAAAGCAAGAUGAUACAGAAAGCUGCUCUAAAAUCUCACUGAGUGAUUUCACCUUCGCCUACUAUG: 0.858
UGCUCCUGUAUUAUUAACUUGCUUCAGUUAACUGACUUGAGAAACUAACCAAUUUUUACCUUCUGCCUAGAAUGAUGUACACAUAGGAGAGAAAGCUAUCAUGUUCCCGA: 0.769
CUGGCUUUUCCUCACAAAGAAUGUCUAGACAAACAGCAGCUUAGUCUCCUGACACCUCUUGUGGGGUGCAUGUUCCUGCUCCAGGUAUGCUGUUCAUGUGGAUUCAUUCC: 3.83
UCUGGCUCCGUGGCUGGAGGACCAACCCCUAUAGUGGGAAUGCAGAGCUUAACGUGUACUGCUUGUGUGUGUGCGUGAGUGUGUGUGUGUGUAUGAGUGUGUGUUCCGCC: 3.8

Set 5 — target: CCNE2, cyclin fold, Cln2 fusion (human); method: yeast growth competition, sequencing; sample: yeast; setting: strong parent motif; reference: not given; reading: higher = stronger binding; quantity: normalised enrichment score
Starting sequence: INSM1 docking peptide (human); PKAIRKLHFEDEV
K2A: 1.25
R5I: -0.21
H8Q: 1.6
R5A: -0.126
F9K: -0.301
D11S: 1.75
E10I: 0.84
K6A: 0.818
E12K: 2.03
F9A: -0.355
D11H: 1.63
L7M: 0.49
A3K: 0.283
F9W: 0.885
D11R: 1.41
F9I: -0.289
E10W: 0.751
K6V: 1.02
K6E: 0.268
F9L: 0.325
E12L: 2.06
H8T: 2.25
I4A: 0.771
K2V: 0.688
H8V: 2.39

For quick reference, copied from above (set 2):
TCATTTTTTAGCTTCTCACTGTGCTAG: 0.884 z-score
TTAGGACTGCGACTGGGTTAGTGCTAG: -0.607 z-score
TGAGCATACCATATCAGAAAGTGCTAG: 0.523 z-score
GACGGTTTCGGTGCCGGGACGTGCTAG: 8.08 z-score
GACGATTTCGGTTATCGAGACGTGCTA: 7.85 z-score
TCAAGTTTTTATTTTCTACTGTGCTAG: 2.11 z-score
TTAGGACTGGGTTTCGGTTCGTGCTAG: 6.95 z-score
TCACATTCCCCATTGTGACTGTGCTAG: 0.107 z-score
CCCCTCTTCTGGATCTCAGAGTGCTAG: -0.362 z-score
TCAAGCTTCTTTTTTATACTGTGCTAG: 0.467 z-score
GCCGGTATCGGGACTGGGGACGTGCTA: 1.45 z-score
